Published values collected from several papers.
A part holds a random share of what one study measured. Positions count from the first letter of the parent shown.

Sample 1 — target: CCNA1, cyclin fold, Cln2 fusion (human); method: yeast growth competition, sequencing; matrix: yeast; notes: weak parent motif; baseline: not given; direction: higher = stronger binding; endpoint: normalised enrichment score
Parent: CDAN1 docking peptide (human); RGARSQLFPPTEA; partner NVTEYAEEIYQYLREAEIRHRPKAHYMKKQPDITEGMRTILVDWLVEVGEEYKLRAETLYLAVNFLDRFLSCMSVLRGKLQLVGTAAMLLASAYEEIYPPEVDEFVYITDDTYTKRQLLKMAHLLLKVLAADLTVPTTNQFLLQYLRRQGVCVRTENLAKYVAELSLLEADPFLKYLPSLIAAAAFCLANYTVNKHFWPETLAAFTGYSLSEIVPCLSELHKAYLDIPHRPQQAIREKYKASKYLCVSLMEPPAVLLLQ
RGARSQAFPPTEA [L7A]: -0.0563
AGARSQLFPPTEA [R1A]: 0.299
RGARSQLAPPTEA [F8A]: 0.467
RGARSQLFAPTEA [P9A]: 0.548
RGARSQLFPPTAA [E12A]: 0.119

Sample 2 — method: protein binding microarray; molecule type: double-stranded DNA, one strand shown; matrix: in vitro; tested at: not given; baseline: not given; direction: higher = stronger binding; endpoint: E-score
Target: Histone acetyltransferase KAT6A, both winged helices, GST fusion (KAT6A, Homo sapiens, UniProt Q92794, residues 1-181)
Notes: 8-mer, flanks averaged, mean of 2 arrays, mostly near background
Construct (chain): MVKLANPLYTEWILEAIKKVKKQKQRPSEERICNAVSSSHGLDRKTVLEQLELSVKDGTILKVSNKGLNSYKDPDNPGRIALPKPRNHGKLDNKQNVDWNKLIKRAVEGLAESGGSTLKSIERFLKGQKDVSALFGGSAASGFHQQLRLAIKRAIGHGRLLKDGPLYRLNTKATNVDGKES
CTGTTAAC: 0.0209
TAAACCTA: -0.139
CGCCGGAC: 0.285
GCTGATGA: 0.0049
CGGCTTCC: 0.215
CGATATAG: 0.0741
GCCTTATA: -0.0714
ACCCTGCT: -0.176

Sample 3 — method: DHFR PCA, deep sequencing; matrix: yeast; added: (+)-ABA 0 µM; baseline: wild-type fitted maximum; direction: higher = stronger binding; endpoint: relative binding score
Target: ABI1, truncated, D143A, DHFR fusion (Arabidopsis thaliana)
Notes: methotrexate growth selection, single substitutions
Parent: PYL1, truncated, DHFR fusion (Arabidopsis thaliana); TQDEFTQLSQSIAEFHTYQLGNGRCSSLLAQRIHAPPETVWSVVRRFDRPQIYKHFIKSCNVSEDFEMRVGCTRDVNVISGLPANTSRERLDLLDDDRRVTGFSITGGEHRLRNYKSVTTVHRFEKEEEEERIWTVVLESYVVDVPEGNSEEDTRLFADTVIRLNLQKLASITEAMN; partner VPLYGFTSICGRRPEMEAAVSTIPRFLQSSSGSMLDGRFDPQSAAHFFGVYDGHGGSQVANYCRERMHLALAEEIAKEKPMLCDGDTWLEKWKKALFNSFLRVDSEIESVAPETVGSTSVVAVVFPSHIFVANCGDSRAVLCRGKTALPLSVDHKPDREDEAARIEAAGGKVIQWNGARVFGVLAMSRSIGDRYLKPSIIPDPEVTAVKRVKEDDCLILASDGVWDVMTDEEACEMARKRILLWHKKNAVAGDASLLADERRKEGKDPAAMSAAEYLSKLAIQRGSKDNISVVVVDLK
R45H: -0.375%
L156C: 14%
F124C: 23.5%
T120D: -4.54%
G102A: 11.6%
T101Y: 2.31%
S140Q: 8.41%
C72A: 52.8%
R123L: 0.661%
T106D: -5.39%
N177R: 16.1%

Mixed results
PhoQ, residues 284 288 289 292 302 303 GASLAW
fold induction (PhoP, residues 12 14 15 18 19 DLLYY (Escherichia coli, UniProt P23836); Sort-seq, measured: YFP reporter; E. coli; PhoQ-PhoP variant library, added: 10 µM Mg2+; baseline: high Mg2+ state, higher = stronger signaling): 1.57

Some of these lines once more (sample 3):
F124C: 23.5%
C72A: 52.8%
T120D: -4.54%
T106D: -5.39%
